Measurements of several laboratories.
Every numbered part comes from another study and shows a few of its results, in no order. Changes are numbered by the printed parent chain.
UniProt P24723, sequence (whole entry, looked up): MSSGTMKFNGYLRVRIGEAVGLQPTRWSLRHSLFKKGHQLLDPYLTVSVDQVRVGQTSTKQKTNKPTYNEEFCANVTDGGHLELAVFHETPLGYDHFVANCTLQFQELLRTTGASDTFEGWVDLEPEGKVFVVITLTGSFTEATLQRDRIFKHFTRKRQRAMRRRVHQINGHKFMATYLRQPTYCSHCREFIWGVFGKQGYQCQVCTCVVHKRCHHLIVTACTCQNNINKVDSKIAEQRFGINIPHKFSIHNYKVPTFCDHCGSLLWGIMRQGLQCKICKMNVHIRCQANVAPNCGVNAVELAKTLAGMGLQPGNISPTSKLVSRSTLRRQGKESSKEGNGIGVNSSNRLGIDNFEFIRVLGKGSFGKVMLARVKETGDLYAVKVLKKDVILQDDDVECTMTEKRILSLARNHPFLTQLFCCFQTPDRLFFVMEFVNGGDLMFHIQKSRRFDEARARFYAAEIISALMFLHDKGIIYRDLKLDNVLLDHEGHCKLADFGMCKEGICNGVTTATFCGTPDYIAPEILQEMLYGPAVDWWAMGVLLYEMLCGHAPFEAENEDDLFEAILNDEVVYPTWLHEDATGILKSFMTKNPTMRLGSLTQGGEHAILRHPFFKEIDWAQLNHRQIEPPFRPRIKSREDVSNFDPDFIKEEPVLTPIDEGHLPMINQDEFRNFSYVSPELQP
UniProt P37023, sequence (whole entry, looked up): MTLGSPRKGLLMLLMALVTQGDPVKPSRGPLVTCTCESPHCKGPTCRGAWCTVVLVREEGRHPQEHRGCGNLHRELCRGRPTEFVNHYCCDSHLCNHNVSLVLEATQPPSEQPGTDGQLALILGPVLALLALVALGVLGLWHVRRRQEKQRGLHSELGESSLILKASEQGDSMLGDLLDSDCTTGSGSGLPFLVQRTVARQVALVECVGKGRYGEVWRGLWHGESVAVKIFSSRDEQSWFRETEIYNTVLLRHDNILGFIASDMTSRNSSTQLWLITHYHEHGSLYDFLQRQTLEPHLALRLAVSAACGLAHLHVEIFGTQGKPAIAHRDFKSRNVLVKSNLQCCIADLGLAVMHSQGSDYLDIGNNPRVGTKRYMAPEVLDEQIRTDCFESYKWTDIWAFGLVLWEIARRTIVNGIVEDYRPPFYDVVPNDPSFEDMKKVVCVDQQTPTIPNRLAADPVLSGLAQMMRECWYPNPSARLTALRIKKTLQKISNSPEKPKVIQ
UniProt Q9P0L2, sequence (whole entry, looked up): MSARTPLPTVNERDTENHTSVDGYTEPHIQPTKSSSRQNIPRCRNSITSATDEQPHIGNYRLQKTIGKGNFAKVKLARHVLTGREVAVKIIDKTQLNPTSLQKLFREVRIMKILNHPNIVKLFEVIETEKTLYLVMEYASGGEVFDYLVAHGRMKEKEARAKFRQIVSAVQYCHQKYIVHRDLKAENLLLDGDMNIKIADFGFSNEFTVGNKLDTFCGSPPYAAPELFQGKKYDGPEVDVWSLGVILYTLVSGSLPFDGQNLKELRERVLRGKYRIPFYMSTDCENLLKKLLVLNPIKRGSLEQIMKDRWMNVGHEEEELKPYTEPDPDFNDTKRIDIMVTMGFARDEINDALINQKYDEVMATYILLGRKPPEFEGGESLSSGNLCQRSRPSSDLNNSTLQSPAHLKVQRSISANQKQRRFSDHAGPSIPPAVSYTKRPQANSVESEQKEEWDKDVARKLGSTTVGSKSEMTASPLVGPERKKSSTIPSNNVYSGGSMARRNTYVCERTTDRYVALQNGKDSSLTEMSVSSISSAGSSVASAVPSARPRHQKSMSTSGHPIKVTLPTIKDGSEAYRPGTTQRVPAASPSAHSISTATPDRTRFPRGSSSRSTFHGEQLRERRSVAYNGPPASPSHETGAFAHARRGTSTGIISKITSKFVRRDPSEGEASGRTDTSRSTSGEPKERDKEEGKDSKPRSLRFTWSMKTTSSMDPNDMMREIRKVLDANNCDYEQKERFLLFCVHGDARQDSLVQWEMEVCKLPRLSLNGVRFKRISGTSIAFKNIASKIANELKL

Set 1 — target: CCNF, cyclin fold, Cln2 fusion (human); method: yeast growth competition, sequencing; matrix: yeast; setting: strong parent motif; reference: not given; direction: higher = stronger binding
Starting sequence: CDKN1B docking peptide (human); PSACRNLFGPVDH
Variant	normalised enrichment score
PSACRNLFGPGDH [V11G]	6.62
PSACRNCFGPVDH [L7C]	-0.606
PSACRNLFMPVDH [G9M]	3.91
PSAFRNLFGPVDH [C4F]	3.18
PSACRNLFGPVDL [H13L]	6.77
PSACRNLFGPVKH [D12K]	6.94
PSACRNLFGPVNH [D12N]	6.65
PSACRNLFGPYDH [V11Y]	6.71

Set 2 — read-out: cell-free assay; method: competition with immobilised ligand; concentration: 1 µM
Compound: COc1ccc2c(c1)O[C@H](c1ccc(OC)c(OC)c1)C[C@@H]2NC(=O)C1(c2ccc3c(c2)OC(F)(F)O3)CC1
target	remaining binding [%]
MARK1 (Homo sapiens, UniProt Q9P0L2)	79
ACVRL1 (Homo sapiens, UniProt P37023)	90
PRKCH (Homo sapiens, UniProt P24723)	100

Set 3 — read-out: enzyme activity; mode: inhibitor; concentration: 0.5 µM; reference: control
Target: Insulin-like growth factor 1 receptor (IGF1R, Homo sapiens, UniProt P08069)
UniProt P08069, sequence (whole entry, looked up): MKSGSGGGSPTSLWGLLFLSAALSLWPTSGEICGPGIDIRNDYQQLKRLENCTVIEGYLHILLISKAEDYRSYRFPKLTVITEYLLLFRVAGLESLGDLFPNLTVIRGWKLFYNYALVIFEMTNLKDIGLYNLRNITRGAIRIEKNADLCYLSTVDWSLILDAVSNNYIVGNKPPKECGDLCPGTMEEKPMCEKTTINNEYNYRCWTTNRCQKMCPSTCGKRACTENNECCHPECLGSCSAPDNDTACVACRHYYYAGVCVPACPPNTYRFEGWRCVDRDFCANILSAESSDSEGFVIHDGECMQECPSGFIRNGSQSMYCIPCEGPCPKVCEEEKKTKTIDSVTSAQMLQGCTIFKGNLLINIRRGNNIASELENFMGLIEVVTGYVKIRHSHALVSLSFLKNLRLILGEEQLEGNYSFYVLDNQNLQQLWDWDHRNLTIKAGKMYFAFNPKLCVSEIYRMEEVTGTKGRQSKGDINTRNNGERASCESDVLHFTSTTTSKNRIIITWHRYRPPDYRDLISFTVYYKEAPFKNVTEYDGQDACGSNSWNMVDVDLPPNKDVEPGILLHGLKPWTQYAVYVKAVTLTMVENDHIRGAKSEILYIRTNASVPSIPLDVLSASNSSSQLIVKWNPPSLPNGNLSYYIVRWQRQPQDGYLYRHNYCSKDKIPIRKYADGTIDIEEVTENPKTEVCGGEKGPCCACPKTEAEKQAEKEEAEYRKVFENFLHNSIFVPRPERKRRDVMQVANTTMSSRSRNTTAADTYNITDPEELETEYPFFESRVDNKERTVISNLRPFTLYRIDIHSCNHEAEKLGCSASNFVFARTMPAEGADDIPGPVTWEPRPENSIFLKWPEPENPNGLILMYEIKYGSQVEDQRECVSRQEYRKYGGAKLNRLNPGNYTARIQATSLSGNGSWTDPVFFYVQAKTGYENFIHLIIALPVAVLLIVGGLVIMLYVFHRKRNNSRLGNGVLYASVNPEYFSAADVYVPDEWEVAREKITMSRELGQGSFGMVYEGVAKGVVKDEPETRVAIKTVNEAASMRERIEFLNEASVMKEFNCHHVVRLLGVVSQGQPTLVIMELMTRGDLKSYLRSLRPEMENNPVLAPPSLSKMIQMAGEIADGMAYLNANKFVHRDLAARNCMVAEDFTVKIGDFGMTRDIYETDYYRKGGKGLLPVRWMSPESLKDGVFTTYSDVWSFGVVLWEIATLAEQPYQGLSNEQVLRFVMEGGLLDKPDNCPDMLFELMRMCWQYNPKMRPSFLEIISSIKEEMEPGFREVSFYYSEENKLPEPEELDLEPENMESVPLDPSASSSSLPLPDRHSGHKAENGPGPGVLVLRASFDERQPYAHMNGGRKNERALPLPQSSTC
Structure (SMILES)	remaining activity [%]
CNC(=O)c1cc(Oc2ccc(NC(=O)Nc3ccc(Cl)c(C(F)(F)F)c3)cc2)ccn1	94.3
COc1cc2ncnc(Nc3ccc(F)c(Cl)c3)c2cc1OCCCN1CCOCC1	92.3
Cn1sc(=O)n(Cc2ccccc2)c1=O	97.1
Oc1ccc(-c2nc(-c3ccncc3)c(-c3ccc(F)cc3)[nH]2)cc1	108
CC(C)[C@H](CO)Nc1nc(Nc2cc(N)cc(Cl)c2)c2ncn(C(C)C)c2n1	73
Nc1ncnc2n[nH]c(Nc3ccc(F)cc3)c12	104
O=c1c2ccccc2[nH]c(=S)n1CCN1CCC(=C(c2ccc(F)cc2)c2ccc(F)cc2)CC1	105
COc1ccc(CNC(=O)Nc2ncc([N+](=O)[O-])s2)cc1	101
COc1ccc(OC)c2c(=S)c3ccccc3[nH]c12	97.2
O=C(O)c1ccc2c3c1cccc3c(=O)n1c3ccccc3nc21	100
Nc1ccc2ncnc(NCCc3ccc(Oc4ccccc4)cc3)c2c1	99.7

Set 4 — method: RNA Bind-n-Seq; form: RNA; matrix: in vitro; concentration: 365 nM; reference: no-protein control; direction: higher = stronger binding
Target: RNA binding protein fox-1 homolog 2, RRM domain, GST-SBP tag (RBFOX2, Homo sapiens, UniProt O43251-10, residues 100-194)
Setting: natural RNA segment, single round, ends assumed
Residues (chain): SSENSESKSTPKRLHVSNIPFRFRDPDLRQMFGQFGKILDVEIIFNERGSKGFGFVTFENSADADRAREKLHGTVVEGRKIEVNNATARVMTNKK
Oligonucleotide	RBNS enrichment (R)
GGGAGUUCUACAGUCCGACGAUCACAGCCAGAAGCCAAAACUAUUCCCAGAAAGUUUUGAAUGCAAAACUUGUAGAUUCCUGAAUUUAUUCCAUACAUAAUUAUUUCCUUAAGUUAUUUAAUUAUUAAAGGUGUGGAAUUCUCGGGUGCCAA	0.59
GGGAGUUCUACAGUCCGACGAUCCCUUUGUCCUUUGCUUGGCCUAAGAUGCCAAUGCCCCGCCAUGUUUUCUCCAGAGAGUCCUUGGGGUGAGCCUUGGGGCACAGGUACACUCAGAGGUCUGAGAGCCUACCUGGAAUUCUCGGGUGCCAA	0.445
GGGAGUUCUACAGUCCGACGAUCUUUCAAGUUUAAUAAAAUAGCAAUUAGCAGAAGUGACCAAAUUGGGAGAUAAUUAUCAGUCAUGAGGAAAGACACAGAUUUCGGUCAUAAAGAAUGUAAGGGCUAUAAGUUGGAAUUCUCGGGUGCCAA	0.647
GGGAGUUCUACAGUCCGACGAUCAAUAUGGAGUAAGUAUUGUAAACUAUUUCAUCGCGGGGAUUGUGGGUGUUAUACAUACAUUUAGGACUGCAAUUUUUUGGUAUUUUUUGUAUUGUAAAAUAACAGCUAAUUGGAAUUCUCGGGUGCCAA	3.52
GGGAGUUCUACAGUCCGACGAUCUGUCACAGACAAAUAUGGGUAGUUUUGUUUAAAUAGGUAAGCAAAAUAUUAUACUUUAUAGCAGUGGAUUACCAACACCUUGACUUCUUUGUUACAGUGCUAACAUCUUUUGGAAUUCUCGGGUGCCAA	0.25
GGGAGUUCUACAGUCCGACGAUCCAGCCCCCAGAAUGUUCUGGACAUGCACCACCAGCCGGUGGUCCCAAUGUCCACCCCUGCCUCCCCUUCACUGGGGACUGGGGUUUUCGCCCCAUGCUGCAUCGUGUUGUUGGAAUUCUCGGGUGCCAA	0.498
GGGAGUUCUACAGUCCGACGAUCUGUGUAAAUAUUUUCCUCUCAGGGCAGGGGAAAGAGGACAGAGAAAGGAGCUGGUAGAAGCAGAGAGUGUAUUUCCCAUCUUGAAUGGGCCGGAGGUCUCGAAGCCUCAGUGGAAUUCUCGGGUGCCAA	0.551
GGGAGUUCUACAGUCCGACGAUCGGCAUUUGCAAAGUCUAUUCAGUUUCCUUCCACACUCUGACCCACGGUUGUAGCGGAGUGGGCUGAACACUGUAACACUGUACAUGCGAUUUCCCCAUGGGCUUCUAAAAUGGAAUUCUCGGGUGCCAA	0.484

A few entries again (set 1):
Variant	normalised enrichment score
PSAFRNLFGPVDH [C4F]	3.18
PSACRNLFGPVDL [H13L]	6.77
PSACRNLFGPVKH [D12K]	6.94
